Measured values gathered from unrelated publications.
Compare with care: the assays were run in different laboratories.
Sequence of UniProt P46734 (whole entry, looked up): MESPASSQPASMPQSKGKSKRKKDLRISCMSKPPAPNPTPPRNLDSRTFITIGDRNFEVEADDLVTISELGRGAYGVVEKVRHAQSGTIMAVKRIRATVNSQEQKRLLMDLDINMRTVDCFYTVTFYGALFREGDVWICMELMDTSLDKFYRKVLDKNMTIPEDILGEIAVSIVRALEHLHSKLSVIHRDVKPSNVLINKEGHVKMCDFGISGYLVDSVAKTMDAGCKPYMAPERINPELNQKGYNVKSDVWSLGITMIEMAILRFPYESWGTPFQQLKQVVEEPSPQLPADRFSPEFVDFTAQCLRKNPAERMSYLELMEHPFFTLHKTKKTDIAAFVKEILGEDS
Sequence of UniProt P00519 (whole entry, unmodified, looked up): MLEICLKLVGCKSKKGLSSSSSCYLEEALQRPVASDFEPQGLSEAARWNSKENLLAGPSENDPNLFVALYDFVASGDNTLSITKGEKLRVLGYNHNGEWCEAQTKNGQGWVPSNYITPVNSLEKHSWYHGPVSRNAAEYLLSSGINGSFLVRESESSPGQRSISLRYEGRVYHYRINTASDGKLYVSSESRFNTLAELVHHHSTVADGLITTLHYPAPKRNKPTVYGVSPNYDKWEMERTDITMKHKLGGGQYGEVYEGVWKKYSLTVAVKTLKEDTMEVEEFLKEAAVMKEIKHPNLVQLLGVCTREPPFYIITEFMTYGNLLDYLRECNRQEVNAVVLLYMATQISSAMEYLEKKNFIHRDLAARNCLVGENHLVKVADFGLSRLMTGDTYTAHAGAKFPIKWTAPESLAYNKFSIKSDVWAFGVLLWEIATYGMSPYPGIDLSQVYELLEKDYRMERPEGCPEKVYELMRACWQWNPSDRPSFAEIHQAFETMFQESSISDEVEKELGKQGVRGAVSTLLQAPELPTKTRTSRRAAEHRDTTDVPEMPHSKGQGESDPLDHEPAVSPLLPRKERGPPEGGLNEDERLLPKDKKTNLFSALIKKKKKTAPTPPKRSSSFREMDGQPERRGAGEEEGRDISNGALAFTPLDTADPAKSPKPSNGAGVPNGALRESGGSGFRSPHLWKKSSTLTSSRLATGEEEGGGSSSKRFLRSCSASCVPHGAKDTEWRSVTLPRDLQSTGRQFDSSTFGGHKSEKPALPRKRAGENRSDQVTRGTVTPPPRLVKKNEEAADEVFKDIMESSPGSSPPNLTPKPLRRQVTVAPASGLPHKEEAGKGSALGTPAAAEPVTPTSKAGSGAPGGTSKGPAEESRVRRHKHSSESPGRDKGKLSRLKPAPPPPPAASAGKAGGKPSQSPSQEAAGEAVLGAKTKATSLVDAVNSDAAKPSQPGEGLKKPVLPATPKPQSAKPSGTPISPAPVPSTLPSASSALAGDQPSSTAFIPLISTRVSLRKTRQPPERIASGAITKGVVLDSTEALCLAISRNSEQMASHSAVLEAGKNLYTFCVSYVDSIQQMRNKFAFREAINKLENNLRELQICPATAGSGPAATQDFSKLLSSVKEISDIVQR
Sequence of UniProt Q04912 (whole entry, looked up): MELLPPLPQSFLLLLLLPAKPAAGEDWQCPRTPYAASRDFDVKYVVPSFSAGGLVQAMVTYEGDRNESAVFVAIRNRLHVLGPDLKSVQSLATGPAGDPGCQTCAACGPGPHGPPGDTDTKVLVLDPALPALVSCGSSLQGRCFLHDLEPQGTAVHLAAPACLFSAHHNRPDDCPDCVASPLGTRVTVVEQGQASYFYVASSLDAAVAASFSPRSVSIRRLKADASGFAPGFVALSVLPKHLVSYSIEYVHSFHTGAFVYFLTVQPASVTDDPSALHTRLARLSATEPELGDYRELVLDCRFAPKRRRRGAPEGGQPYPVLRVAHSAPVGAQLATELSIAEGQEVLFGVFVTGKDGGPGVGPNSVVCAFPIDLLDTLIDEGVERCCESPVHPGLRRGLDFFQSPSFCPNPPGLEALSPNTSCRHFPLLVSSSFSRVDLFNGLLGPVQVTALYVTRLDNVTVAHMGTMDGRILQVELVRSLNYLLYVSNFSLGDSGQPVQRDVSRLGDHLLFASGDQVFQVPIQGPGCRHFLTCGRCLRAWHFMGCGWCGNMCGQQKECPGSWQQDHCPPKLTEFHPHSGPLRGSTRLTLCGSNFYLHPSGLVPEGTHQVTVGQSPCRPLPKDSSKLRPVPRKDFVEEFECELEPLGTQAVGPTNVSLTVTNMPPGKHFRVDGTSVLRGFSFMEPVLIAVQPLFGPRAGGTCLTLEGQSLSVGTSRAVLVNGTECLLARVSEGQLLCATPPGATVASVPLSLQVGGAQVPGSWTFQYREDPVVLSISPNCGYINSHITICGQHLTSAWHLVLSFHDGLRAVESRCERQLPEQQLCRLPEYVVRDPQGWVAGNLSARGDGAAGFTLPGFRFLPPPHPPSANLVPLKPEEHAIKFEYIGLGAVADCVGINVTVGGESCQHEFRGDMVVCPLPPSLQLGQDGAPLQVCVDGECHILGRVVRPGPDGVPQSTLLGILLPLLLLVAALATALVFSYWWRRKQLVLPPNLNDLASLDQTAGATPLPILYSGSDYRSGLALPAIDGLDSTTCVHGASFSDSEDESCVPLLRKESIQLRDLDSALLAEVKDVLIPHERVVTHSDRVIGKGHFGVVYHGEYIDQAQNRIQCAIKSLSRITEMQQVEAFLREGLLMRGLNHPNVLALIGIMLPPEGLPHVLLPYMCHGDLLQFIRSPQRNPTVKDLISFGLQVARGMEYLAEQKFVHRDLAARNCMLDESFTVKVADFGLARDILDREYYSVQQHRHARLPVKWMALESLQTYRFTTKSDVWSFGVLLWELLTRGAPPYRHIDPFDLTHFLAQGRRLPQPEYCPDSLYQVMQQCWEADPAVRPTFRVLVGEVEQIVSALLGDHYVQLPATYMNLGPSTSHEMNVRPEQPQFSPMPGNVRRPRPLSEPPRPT

SMILES | target or system | test | setting | endpoint | result
C[C@@H]1CC[C@@H]([C@@](C)(O)Cn2cnc3ccccc32)[C@H](OCc2ccccc2)C1 | A2780 | cell growth or viability, MTT | 10 µM, 72 h | inhibition | 44.3%
CC(C)(C)c1nc(-c2cccc(NS(=O)(=O)c3c(F)cccc3F)c2F)c(-c2ccnc(N)n2)s1 | WM 266-4 | cell growth or viability, MTT | 6.3 µM, 48 h | viability | 56.9%
CCc1c(C)c2ccc(OCC=Cc3ccccc3)c(C)c2oc1=O | PC-3 | cell growth or viability, MTT | 500 µg/mL | viability | 6.77%
COc1cc(-c2cncc3c2CN(C)Cc2cc(N4CCNCC4)ccc2-3)cc(OC)c1OC | MST1R (Homo sapiens, UniProt Q04912) | enzyme activity, inhibitor | 1 µM | remaining activity | 102%
COc1ccc(-c2cc(-c3ccc(S(C)(=O)=O)cc3)cnc2N)cn1 | HEK293 | cell growth or viability |  | IC50 | > 10 µM
COc1ccc(CNC[C@](O)(COCc2ccc(OC)cc2)[C@@H]2CC[C@@H](C)C[C@H]2OCc2ccc(OC)cc2)cc1 | A2780 | cell growth or viability, MTT | 30 µM, 72 h | inhibition | 99.7%
Cc1c(Cc2ccccc2)c(=O)oc2c(C)c(OCC(=O)NN=Cc3ccco3)ccc12 | PC-3 | cell growth or viability, MTT | 125 µg/mL | viability | 17.1%
C=CC(=O)N1CCC(COCC(=O)N2CCN(c3nc(-c4cnc(N)nc4C(F)F)nc(N4CCOC[C@@H]4C)n3)CC2)CC1 | MAP2K3 (Homo sapiens, UniProt P46734) | binding, competition with immobilised ligand | 1 µM | remaining binding | 80%
Cc1[nH]c(C)c(-c2ccc(S(=O)(=O)c3ccc(Cl)cc3)cc2)c(=O)c1Cl | HEK293 | cell growth or viability |  | IC50 | > 10 µM
CC(=NNC(=O)c1ccc(N)cc1)c1ccc(Nc2nnc(-c3ccc(Cl)cc3)c3ccccc23)cc1 | MCF7 | cell growth or viability, MTT | 10 µM, 24 h | viability | 7.84%
CNc1ncc2c(/C=C/C(=O)N3CCCC3)nn(CC3CCCC3)c2n1 | FLO-1 | cell growth or viability, resazurin | 5 days | EC50 | 16.4 µM
Cc1[nH]c(C)c(-c2ccc(OCc3cc(F)cc(F)c3)nc2)c(=O)c1Cl | HEK293 | cell growth or viability |  | IC50 | > 10 µM
O=C(Nc1ccc(Oc2nnc(-c3ccc(Cl)cc3)c3ccccc23)cc1)c1cccc([N+](=O)[O-])c1 | MCF7 | cell growth or viability, MTT | 5 µM, 24 h | viability | 7.92%
Cc1cc([C@@H](C)Nc2ccccc2C(=O)O)c2nc(N3CCC(F)(F)CC3)c(C#N)c(=O)n2c1 | EGFR (Homo sapiens, UniProt P00533) | binding, competition with immobilised ligand | 10 µM | remaining binding | 80%
CCCCC(=O)Nc1ccc(-c2ccc3ncn(CCC)c(=O)c3c2)cn1 | Tyrosine-protein kinase ABL1, non-phosphorylated (ABL1, Homo sapiens, UniProt P00519, Q252H) | binding, competition with immobilised ligand | 0.5 µM | remaining binding | 81%
CC(=NNC(=O)c1ccccc1)c1ccc(Nc2nnc(-c3ccc(Cl)cc3)c3ccccc23)cc1 | MCF7 | cell growth or viability, MTT | 5 µM | cell death | 94.8%
CNc1ncc2c(/C=C/C(=O)N3CCC(OC)CC3)nn(Cc3ccccc3C)c2n1 | FLO-1 | cell growth or viability, resazurin | 5 days | EC50 | 6.06 µM
CC(=NNC(=O)c1ccncc1)c1ccc(Nc2nnc(-c3ccc(Cl)cc3)c3ccccc23)cc1 | MCF7 | cell growth or viability, MTT | 0.312 µM | cell death | 91.6%
CN(C)CCNC(=O)c1ccc(-c2nc3ccc4[nH]ncc4c3c3c2CCCC3)c(F)c1 | Kasumi 1 | cell growth or viability | 72 h | GI50 | 0.727 µM
CC(=NNC(=O)c1ccccc1Cl)c1ccc(Nc2nnc(-c3ccc(Cl)cc3)c3ccccc23)cc1 | MCF7 | cell growth or viability, MTT | 1.25 µM, 24 h | viability | 62.1%
Cc1noc(NS(=O)(=O)c2ccc(N=NN(C)O)cc2)c1C |  | ABTS scavenging | 60 µg/mL | inhibition | 42.1%
CNc1ncc2c(/C=C/C(=O)N3CCC(OC)CC3)nn(CC3CCCC3)c2n1 | FLO-1 | cell growth or viability, resazurin | 5 days | EC50 | 7.39 µM
OCc1ncc(-c2nn(Cc3ccccc3)c3ccccc23)o1 | RBE | cell growth or viability, ATP luminescence | 46 µM, 72 h | inhibition | 21%
O=C(C=Cc1ccccc1)Nc1ccc(Oc2nnc(-c3ccc(Cl)cc3)c3ccccc23)cc1 | MCF7 | cell growth or viability, MTT | 1.25 µM | cell death | 60.1%
CCC(=CCc1c(O)cc2c(c1O)C(=O)C[C@H](c1ccccc1O)O2)CC | HeLa | cell growth or viability, MTT | 7.5 µM, 48 h | inhibition | 5.94%
S=C(Nc1ccccc1)Nc1ccc(Oc2nnc(-c3ccc(Cl)cc3)c3ccccc23)cc1 | MCF7 | cell growth or viability, MTT | 0.625 µM, 24 h | viability | 99.7%
O=C(CCCC[C@H]1SC[C@H]2NC(=O)N[C@H]21)NCCOCCOCCOc1cccc(Cn2nc(-c3ccc(CO)o3)c3ccccc32)c1 | RBE | cell growth or viability, ATP luminescence | 46 µM, 72 h | inhibition | 66%
Cc1c(Cc2ccccc2)c(=O)oc2c(C)c(OCC(=O)NN=Cc3ccccc3)ccc12 | PC-3 | cell growth or viability, MTT | 500 µg/mL | viability | 11%
CCCN(O)N=Nc1ccc(S(=O)(=O)Nc2cc(C)on2)cc1 |  | ABTS scavenging | 180 µg/mL | inhibition | 28.7%
COc1cc([C@@H]2c3cc4c(cc3[C@@H](O[C@@H]3O[C@@H]5CO[C@@H](C)O[C@H]5[C@H](O)[C@H]3O)[C@H]3COC(=O)[C@H]23)OCO4)cc(OC)c1O | MB002 | cell growth or viability | 7 days | IC50 | 0.012 µM

For quick reference, copied from above:
SMILES | target or system | test | setting | endpoint | result
CN(C)CCNC(=O)c1ccc(-c2nc3ccc4[nH]ncc4c3c3c2CCCC3)c(F)c1 | Kasumi 1 | cell growth or viability | 72 h | GI50 | 0.727 µM
CC(=NNC(=O)c1ccccc1Cl)c1ccc(Nc2nnc(-c3ccc(Cl)cc3)c3ccccc23)cc1 | MCF7 | cell growth or viability, MTT | 1.25 µM, 24 h | viability | 62.1%
Cc1noc(NS(=O)(=O)c2ccc(N=NN(C)O)cc2)c1C |  | ABTS scavenging | 60 µg/mL | inhibition | 42.1%
CNc1ncc2c(/C=C/C(=O)N3CCC(OC)CC3)nn(CC3CCCC3)c2n1 | FLO-1 | cell growth or viability, resazurin | 5 days | EC50 | 7.39 µM
OCc1ncc(-c2nn(Cc3ccccc3)c3ccccc23)o1 | RBE | cell growth or viability, ATP luminescence | 46 µM, 72 h | inhibition | 21%
